Experimental data gathered from unrelated publications.
Protocols differ between the studies behind these lines. Several values in a cell are separate wells, animals, samples, runs or records.
GBA2: Beta-glucosidase (GBA2, Homo sapiens, UniProt Q9HCG7)
Chymotrypsinogen A: Chymotrypsinogen A (Bos taurus, UniProt P00766)
Sensor histidine kinase AirS: Sensor histidine kinase AirS (Staphylococcus aureus, UniProt Q2FX96)
PIK3CG: Phosphatidylinositol 4,5-bisphosphate 3-kinase catalytic subunit gamma isoform (PIK3CG, Homo sapiens, UniProt P48736)
CHEK1: Serine/threonine-protein kinase Chk1 (CHEK1, Homo sapiens, UniProt O14757)
PPARA ligand-binding domain: Peroxisome proliferator-activated receptor alpha, ligand-binding domain (PPARA, Homo sapiens, UniProt Q07869)

| SMILES | tested on | assay | test system | conditions | how to read | endpoint | result |
| --- | --- | --- | --- | --- | --- | --- | --- |
| CCC(=O)N(CCC(c1ccccc1)c1ccco1)Cc1ccc(OC)c(OC)c1 (stereo not shown) | UGT76B1 (Arabidopsis thaliana, UniProt Q9C768) | enzyme activity, inhibitor | – | – | – | IC50 | 84.8 µM |
| COc1cc(/C=C/C(=O)Oc2cc(C(F)(F)F)cc(C(F)(F)F)c2)ccc1O | 3-oxo-5-alpha-steroid 4-dehydrogenase 1 (SRD5A1, Homo sapiens, UniProt P18405) | enzyme activity in cells, inhibitor | – | – | – | IC50 | 8.05 µM |
| OC[C@H]1[C@@H](O)[C@H](O)[C@@H](O)CN1CCCCCOCc1cccc(-c2ccccc2)c1 | GBA2 | inhibitor, 4MU-β-D-glucopyranoside | HEK293T homogenates overexpressing GBA2 | – | – | IC50 | 0.002 µM |
| Cc1c(COc2cc(OCc3cccc(C#N)c3)c(CNC(CO)(CO)CO)cc2Cl)cccc1-c1cccc(OCCCCCC(=O)NO)c1 | Histone deacetylase 2 (HDAC2, Homo sapiens, UniProt Q92769) | enzyme activity, inhibitor | – | – | – | IC50 | 0.108 µM |
| Cc1cc(-c2cc(=O)c3c(O)cc(O)c([C@H]4CCN(C)C[C@H]4O)c3o2)no1 | Cyclin-dependent kinase 9, with cyclin T1 (CDK9, Homo sapiens, UniProt P50750) | kinase activity, inhibitor | – | together with: Cyclin T1 complex, GST-CTD substrate | – | IC50 | 0.0199 µM |
| O=C(Nc1ccccc1OCc1ccccc1)C(C(F)(F)F)C(F)(F)F | Chymotrypsinogen A | enzyme activity, inhibitor, fluorescence | – | – | – | IC50 | 14 µM |
| OC[C@H]1[C@@H](O)[C@H](O)[C@@H](O)CN1CCCC/C=C\C12CC3CC(CC(C3)C1)C2 | GBA2 | inhibitor, 4MU-β-D-glucopyranoside | HEK293T homogenates overexpressing GBA2 | – | – | IC50 | 0.008 µM |
| Nc1ncc2c(n1)-c1c([nH]c3ccc(C4=CCOCC4)cc13)CCC2 | 1-phosphatidylinositol 3-phosphate 5-kinase (PIKFYVE, Homo sapiens, UniProt Q9Y2I7) | enzyme activity, inhibitor, ADP detection | – | – | – | IC50 | 0.012 µM |
| CN(C1=C(c2ccc(F)cc2)C(=O)NC1=O)c1ccccc1 | Sensor histidine kinase AirS | autophosphorylation, inhibitor, BODIPY-FL-ATPγS in-gel fluorescence | – | lower bound of confidence interval | – | IC50 | > 1250 µM |
| Cc1cnc2nc1Nc1cccc(c1)COCc1cc(ccc1OCCN1CCOCC1)N2 | Tyrosine-protein kinase JAK2 (JAK2, Homo sapiens, UniProt O60674) | enzyme activity, inhibitor, FRET | – | – | – | IC50 | 0.034 µM |
| CN(C)c1ccc(CCC(=O)N2C(=O)C3(NC(c4ccc(F)cc4)C4(C(=O)Nc5ccccc54)N3Cc3ccc(F)cc3)c3ccccc32)cc1 (stereo not shown) | PIK3CG | enzyme activity, inhibitor, ADP detection | – | – | – | IC50 | 0.0494 µM |
| Nc1ncc2c(n1)-c1c([nH]c3ccc(-c4ccc(F)cc4)cc13)CC2 | Phosphatidylinositol 5-phosphate 4-kinase type-2 gamma (PIP4K2C, Homo sapiens, UniProt Q8TBX8) | target engagement in cells, BRET | – | – | – | IC50 | 0.029 µM |
| COC(=O)CC(c1cc2ccccc2n(C)c1=O)c1c(O)cc(O)c2c(=O)c(O)c(-c3ccc(O)c(O)c3)oc12 (stereo not shown) | Beta-1,4-galactosyltransferase 1 (B4GALT1, Homo sapiens, UniProt P15291) | inhibitor, UDP-Glo luminescence | – | – | – | IC50 | ~6 µM and 6.2 µM |
| COc1ccc2c(c1)N(C1=C(c3ccccc3)C(=O)NC1=O)CC2 | Sensor histidine kinase AirS | autophosphorylation, inhibitor, BODIPY-FL-ATPγS in-gel fluorescence | – | lower bound of confidence interval | – | IC50 | > 1000 µM |
| O=C(Nc1ccccc1OCCc1ccccc1)C(C(F)(F)F)C(F)(F)F | Chymotrypsinogen A | enzyme activity, inhibitor, fluorescence | – | – | – | IC50 | 24 µM |
| COc1cc(-c2ccc3c(c2)Nc2ccc(C(=O)NCCCN4CCOCC4)cc2NC3=O)ccc1O | CHEK1 | enzyme activity, inhibitor | – | – | – | IC50 | 0.121 µM |
| Cc1ccc(-c2ccc(COCCCCCN3C[C@H](O)[C@@H](O)[C@H](O)[C@H]3CO)cc2)cc1 | GBA2 | inhibitor, 4MU-β-D-glucopyranoside | HEK293T homogenates overexpressing GBA2 | – | – | IC50 | 0.003 µM |
| Cn1cncc1[C@@]1(N)c2ccc(C#N)c(c2)COc2cccc(c2)-c2cc(C#N)nc3ccc1cc23 | Geranylgeranyl transferase type I (Homo sapiens, UniProt P49354+P53609) | enzyme activity, inhibitor | – | – | – | IC50 | > 1 µM |
| OC[C@@H]1[C@@H](O)[C@H](O)[C@@H](O)CN1CCCCCOCC12CC3CC(C1)CC(COCCCCCN1C[C@H](O)[C@@H](O)[C@H](O)[C@H]1CO)(C3)C2 | GBA2 | inhibitor, 4MU-β-D-glucopyranoside | HEK293T homogenates overexpressing GBA2 | – | – | IC50 | 0.01 µM |
| Cc1c(Cc2ccc(OC(C)(C)C(=O)O)cc2)c2ccc(C(=O)N[C@@H](C)c3ccc(C(C)(C)C)cc3)cc2n1C | PPARA ligand-binding domain | reporter gene, luciferase reporter | HEK293T, Gal4-PPARα LBD | – | – | IC50 | 2.69 µM |
| O=C(Nc1cc(Cl)ccc1OCC1CC1)C(C(F)(F)F)C(F)(F)F | Chymotrypsinogen A | enzyme activity, inhibitor, fluorescence | – | – | – | IC50 | 12 µM |
| Cc1c(Cc2ccc(OC(C)C(=O)O)cc2)c2ccc(C(=O)NC(C)c3cccc(C4CC4)c3)cc2n1C (mixture of isomers) | PPARA ligand-binding domain | reporter gene, luciferase reporter | HEK293T, Gal4-PPARα LBD | – | – | IC50 | 12.4 µM |
| Cc1c(O)cc(O)c2c1OC(c1ccc(O)cc1)CC2=O (stereo not shown) | Polyunsaturated fatty acid 5-lipoxygenase (ALOX5, Homo sapiens, UniProt P09917) | enzyme activity, inhibitor | – | – | – | IC50 | > 10 µM |
| OC[C@@H]1[C@@H](O)[C@H](O)[C@@H](O)CN1CCCCCOCC1CC1 | GBA2 | inhibitor, 4MU-β-D-glucopyranoside | HEK293T homogenates overexpressing GBA2 | – | – | IC50 | 0.018 µM |
| C[C@@H]1Cc2c([nH]c3ccccc23)[C@@H](c2c(F)cc(/C=C/C(=O)O)cc2F)N1C12CC(C1)C2 | Glucocorticoid receptor (NR3C1, Homo sapiens, UniProt P04150) | GR receptor activity, agonist, cell-based | – | – | – | IC50 | > 10 µM |

| SMILES | tested on | assay | test system | conditions | how to read | endpoint | result |
| --- | --- | --- | --- | --- | --- | --- | --- |
| COCC1CN(C2CCN(c3cc(OC)c(Nc4ncc(Br)c(Nc5ccc6c(c5P(C)(C)=O)OCCO6)n4)cc3C)CC2)C1 | Serine/threonine-protein kinase D1 (PRKD1, Homo sapiens, UniProt Q15139) | enzyme activity, inhibitor | – | – | – | IC50 | 0.081 µM |
| Cc1ccc(S(=O)(=O)N2N=Cc3ccsc3B2O)cc1 | Urokinase-type plasminogen activator (PLAU, Homo sapiens, UniProt P00749) | enzyme activity, inhibitor | – | – | – | IC50 | > 100 µM |
| COC1CN([C@H]2CC[C@H]([C@@]3(C)Oc4c(Cl)cc(C(=O)NCc5c(SC)cc(C)[nH]c5=O)c(C)c4O3)CC2)C1 | – | RNA-seq, refers to: PFKFB2 | human, whole blood | dose not given, 24 h | relative to: pretreatment baseline | log2 fold change | 1.31 |
| Cc1onc(-c2ccccc2)c1CNC(=O)C(C(F)(F)F)C(F)(F)F | Chymotrypsinogen A | enzyme activity, inhibitor, fluorescence | – | – | – | IC50 | > 100 µM |
| CN(C)c1ccc(/N=N/c2ccc(C(=O)OCCCCN)cc2)cc1 | Islet amyloid polypeptide (IAPP, Homo sapiens, UniProt P10997) | ThT displacement, ThT fluorescence | – | pH 7.4, preformed target-ThT complex, together with: 5 µM ThT | – | IC50 | 0.36 µM |
| CCN(CC)CC(=O)Nc1cccc(-n2cc(-c3ccc4ccc(-c5cn(-c6cccc(NC(=O)CN(CC)CC)c6)nn5)cc4c3)nn2)c1 | Activin receptor type-1 (ACVR1, Homo sapiens, UniProt Q04771) | enzyme activity, inhibitor | – | – | – | IC50 | > 10 µM |
| Cc1c(Cc2cccc(OC(C(=O)O)C(C)C)c2)c2ccc(C(=O)NC(C)c3cccc(C(C)(C)C)c3)cc2n1C (mixture of isomers) | PPARA ligand-binding domain | reporter gene, luciferase reporter | HEK293T, Gal4-PPARα LBD | – | – | IC50 | 3.02 µM |
| CCCCCCN1C[C@H](O)[C@@H](O)[C@H](O)[C@@H]1CO | GBA2 | inhibitor, 4MU-β-D-glucopyranoside | HEK293T homogenates overexpressing GBA2 | – | – | IC50 | 0.14 µM |
| Cc1nc(Nc2ccc3c(c2)/C(=C/c2cn(C)c4ccccc24)C(=O)N3C)c2ccccc2n1 | PIK3CG | enzyme activity, inhibitor, ADP detection | – | – | – | IC50 | 0.212 µM |
| CCCCCCCN1C[C@H](O)[C@@H](O)[C@H](O)[C@@H]1CO | GBA2 | inhibitor, 4MU-β-D-glucopyranoside | HEK293T homogenates overexpressing GBA2 | – | – | IC50 | 0.04 µM |
| O=C(NCc1cccc(Cl)c1)C(C(F)(F)F)C(F)(F)F | Chymotrypsinogen A | enzyme activity, inhibitor, fluorescence | – | – | – | IC50 | 4.7 µM |
| Cc1c(Cc2cc(Cl)cc(OC(C)C(=O)O)c2)c2ccc(C(=O)NC(C)c3ccc(C(C)(C)C)cc3)cc2n1C (stereo not shown) | PPARA ligand-binding domain | reporter gene, luciferase reporter | HEK293T, Gal4-PPARα LBD | – | – | IC50 | 214 µM |
| N#Cc1cc(C(=O)c2cc(Br)ccc2O)cn(-c2ccccc2Cl)c1=O | Adenylate cyclase type 10 (Homo sapiens, UniProt Q96PN6) | enzyme activity, inhibitor, enzyme immunoassay | – | – | – | IC50 | 4.4 µM |
| Cc1nn(-c2cccc(N)c2)c(=O)c2cnc(Nc3ccc(N4CCNCC4)cc3)nc12 | Tyrosine-protein kinase TXK (TXK, Homo sapiens, UniProt P42681) | enzyme activity, inhibitor | – | – | – | IC50 | > 10 µM |
| CC1C(=O)N(S(=O)(=O)c2ccccc2)C1c1ccccc1 (stereo not shown) | Chymotrypsinogen A | enzyme activity, inhibitor, fluorescence | – | – | – | IC50 | 0.7 µM |
| Cc1c(Cc2cc(Cl)cc(O[C@@H](C)C(=O)O)c2)c2ccc(C(=O)N[C@@H](C)c3ccc(C(C)(C)C)cc3)cc2n1CC1CCC1 | PPARA ligand-binding domain | reporter gene, luciferase reporter | HEK293T, Gal4-PPARα LBD | – | – | IC50 | > 100 µM |
| O=C1/C(=N\c2ccc(Cl)cc2Br)c2ccccc2N1Cc1ccccc1 (mixture of isomers) | PIK3CG | enzyme activity, inhibitor, ADP detection | – | – | – | IC50 | 0.0164 µM |
| N#Cc1ccc(-c2ccc(NC(=O)C(C(F)(F)F)C(F)(F)F)cc2)cc1 | Chymotrypsinogen A | enzyme activity, inhibitor, fluorescence | – | – | – | IC50 | > 100 µM |
| N#Cc1cnc(NC(=O)Nc2ccc([N+](=O)[O-])cc2)cn1 | CHEK1 | enzyme activity, inhibitor | – | – | – | IC50 | > 10 µM |
| Cc1c(Cc2cccc(C(C)(C)C(=O)O)c2)c2ccc(C(=O)N[C@@H](C)c3ccc(C(C)(C)C)cc3)cc2n1C | PPARA ligand-binding domain | reporter gene, luciferase reporter | HEK293T, Gal4-PPARα LBD | – | – | IC50 | 4.92 µM |
| COc1cc(F)c(-c2cc(Cn3cnc4c(N)ncnc43)c(N3CCC[C@](N)([C@H](O)C(F)F)C3)cn2)cc1F | Histone-lysine N-methyltransferase NSD3 (NSD3, Homo sapiens, UniProt Q9BZ95) | enzyme activity, inhibitor | – | – | – | IC50 | 8.74 µM |
| C[C@H](NC(=O)C(C(F)(F)F)C(F)(F)F)c1ccccc1 | Chymotrypsinogen A | enzyme activity, inhibitor, fluorescence | – | – | – | IC50 | > 100 µM |
| OC[C@@H]1[C@@H](O)[C@H](O)[C@@H](O)CN1CCCCCOCc1ccccc1 | GBA2 | inhibitor, 4MU-β-D-glucopyranoside | HEK293T homogenates overexpressing GBA2 | – | – | IC50 | 0.001 µM |
| Cc1c(Cc2cccc(OC(C)(C)C(=O)O)c2)c2ccc(C(=O)N[C@@H](C)c3cccc(C(C)(C)C)c3)cc2n1CC1CC1 | PPARA ligand-binding domain | reporter gene, luciferase reporter | HEK293T, Gal4-PPARα LBD | – | – | IC50 | > 100 µM |
